Published values pooled from the literature.
Numbers after ± are the reported error.

SMILES	test	test system	setting	scale	endpoint	value
COC(=O)c1ccc2c(c1)NC(=O)/C2=C(\Nc1ccc(N(C)C(=O)CN2CCN(C)CC2)cc1)c1ccccc1	–	human, healthy, plasma	oral, 150 mg, with: rifampicin 600 mg	baseline: alone	AUC(0-inf) ratio	50.1%
CO[C@H]1C[C@@H]2CC[C@@H](C)[C@@](O)(O2)C(=O)C(=O)N2CCCC[C@H]2C(=O)O[C@H]([C@H](C)C[C@@H]2CC[C@@H](OCCO)[C@H](OC)C2)CC(=O)[C@H](C)/C=C(\C)[C@@H](O)[C@@H](OC)C(=O)[C@H](C)C[C@H](C)/C=C/C=C/C=C/1C	–	healthy human adults, blood	dose not given, with: ritonavir-containing 3D regimen	baseline: with over without regimen	AUC(0-inf) ratio	27.1
CCOc1c([C@H](C)n2nc(C)c3c(N)ncnc32)cc(Cl)c(F)c1[C@@H]1CNC(=O)C1	–	healthy fasted humans, plasma	oral, 20 mg	–	AUC(0-inf) geometric mean	14.6 µM·h
CO[C@H]1C[C@@H]2CC[C@@H](C)[C@@](O)(O2)C(=O)C(=O)N2CCCC[C@H]2C(=O)O[C@H]([C@H](C)C[C@@H]2CC[C@@H](O)[C@H](OC)C2)CC(=O)[C@H](C)/C=C(\C)[C@@H](O)[C@@H](OC)C(=O)[C@H](C)C[C@H](C)/C=C/C=C/C=C/1C	–	human, whole blood	oral, 35 mg, without grapefruit juice	–	AUC(0-inf)	1800 ng·h/mL
NS(=O)(=O)OC[C@@H]1C[C@@H](n2ccc3c(N[C@H]4CCc5ccccc54)ncnc32)C[C@@H]1O	–	human	intravenous, 8 mg/m^2, with: itraconazole	baseline: with over without itraconazole	AUC(0-inf) ratio	123%
[2H]C([2H])([2H])Oc1cc2c(cc1OC([2H])([2H])[2H])C1CC(=O)C(CC(C)C)CN1CC2 (stereo not shown)	geometric mean ratio, crossover, item: alpha-dihydrotetrabenazine	human, fasted, plasma	oral, 15 mg	baseline: compound over tetrabenazine 25 mg fasted	AUC(0-inf) ratio	119%
CC(C)(C)OC[C@@H]1C(=O)NCCN1C(=O)C[C@H](N)Cc1cc(F)c(F)cc1F	–	human	20 mg once daily, day 10	–	AUC(0-inf) at steady state	680 ± 78.1 ng·h/mL
O=C(NC[C@H]1CN(c2ccc(N3CCOCC3=O)cc2)C(=O)O1)c1ccc(Cl)s1	–	human, mild renal impairment, plasma	oral, 10 mg, with: erythromycin at steady state	baseline: same subjects, compound alone	AUC(0-inf) increase	~54%
CC(C)[C@@H](CS(=O)(=O)C(C)C)N1C(=O)[C@@](C)(CC(=O)O)C[C@H](c2cccc(Cl)c2)[C@H]1c1ccc(Cl)cc1	–	human, plasma	oral, 60 mg, new tablet fasted	–	AUC(0-inf) geometric LS mean	2990 ng·h/mL
CC(C)NC[C@@H](C(=O)N1CCN(c2ncnc3c2[C@H](C)C[C@H]3O)CC1)c1ccc(Cl)cc1	–	human, hepatic impairment Moderate (Child-Pugh), plasma	oral, 100 mg single, geometric mean	–	AUC(0-inf)	808 ng·h/mL

A few entries again:
SMILES	test	test system	setting	scale	endpoint	value
CC(C)(C)OC[C@@H]1C(=O)NCCN1C(=O)C[C@H](N)Cc1cc(F)c(F)cc1F	–	human	20 mg once daily, day 10	–	AUC(0-inf) at steady state	680 ± 78.1 ng·h/mL
